Experimental data pooled from the literature.
Lines come from different studies, so protocols differ. Numbers after ± are the reported error.

The tissue concentration of `CCCCCCCC(=O)NCCCC[C@H](NC(=O)[C@H](Cc1ccccc1)NC(=O)[C@@H](CCCNC(=N)N)NC(=O)[C@@H](N)Cc1ccc(O)cc1)C(N)=O` is reported as 199 ± 8 ng/g (CD-1 mouse, male, brain; intravenous, 3 mg/kg, 180 min).
The capacity factor of `O.[C-]#[O+].[C-]#[O+].[C-]#[O+].[Re+].c1ccc(-c2ccccn2)nc1` is reported as 1.5 (RP-HPLC C18 column, item: aqua complex; MeCN:water 40:60, 0.1% TFA; isocratic elution).
Under “definitely drug-related adverse events”, `CC(C)[C@H](NC(=O)CNC(=O)[C@H](CCC(N)=O)NC(=O)[C@H](C)N)C(=O)O` is recorded as 0% (healthy human; intravenous, 30 mg/kg single dose; baseline: subjects).
For `CCN(CC)c1ccc2c(-c3ccccc3C(=O)OCCOCC[18F])c3ccc(=[N+](CC)CC)cc-3oc2c1`, the tracer uptake was 0.77 %ID/g (rat, bone; 1 h).
For `CC[C@H](C)C(=O)N1CCC(NC(=O)Nc2ccc(OC(F)(F)F)c(F)c2)CC1`, “subjects with trichomoniasis TEAE” read 0% (healthy volunteers; oral, 8 mg single dose).
For `Cc1cc(Nc2nc(C[C@@]3(C(=O)O)CCN(Cc4cccc(Cl)c4F)[C@H](C)C3)cc(C)c2F)n[nH]1`, the half-life was 3.56 h (beagle dog, plasma; intravenous, 1 mg/kg, single dose).
`CN(C)C(CNC(=O)Nc1cc(C(F)(F)F)ccc1N1CCOCC1)c1ccncc1` (stereo not shown): “serum alkaline phosphatase” 63 U/L (mouse, serum; intraperitoneal, 180 mg/kg single dose).
For `COc1ccc(F)c2[nH]c(C(=O)N[C@@H](CC(C)C)C(=O)N[C@@H](C[C@@H]3CCNC3=O)C(=O)c3nc4ccccc4s3)cc12`, the half-life was about 0.5 h (Jcl:ICR mice, female; intravenous, 2.0 mg/kg).
With `CC1N=C(c2ccccc2F)c2cc(Br)ccc2-n2cnc(C(=O)OC3OC(CO)C(O)C(O)C3O)c21` (stereo not shown) the cumulative excretion was 13.9 ± 7.1% (LC-MS/MS; Swiss Webster mouse, female, urine; intraperitoneal, 750 µg parent drug, 0 to 24 h).
The critical temperature of `CC[C@H](C)[C@H](NC(=O)[C@H](C)NC(=O)CNC(=O)[C@H](Cc1ccccc1)NC(=O)[C@H](CC(N)=O)NC(=O)[C@H](CC(N)=O)NC(=O)[C@H](CO)NC(=O)[C@H](CO)NC(=O)[C@H](Cc1c[nH]cn1)NC(=O)[C@@H](NC(=O)[C@H](CC(C)C)NC(=O)[C@H](Cc1ccccc1)NC(=O)[C@H](CC(N)=O)NC(=O)[C@H](C)NC(=O)[C@H](CC(C)C)NC(=O)[C@H](CCCNC(=N)N)NC(=O)[C@H](CCC(N)=O)NC(=O)[C@@H](NC(=O)[C@H](C)NC(=O)[C@@H]1CSSC[C@H](NC(=O)[C@@H](N)CCCCN)C(=O)N[C@@H](CC(N)=O)C(=O)N[C@@H]([C@@H](C)O)C(=O)N[C@@H](C)C(=O)N[C@@H]([C@@H](C)O)C(=O)N1)[C@@H](C)O)C(C)C)C(=O)N[C@@H](CC(C)C)C(=O)N[C@@H](CO)C(=O)N[C@@H](CO)C(=O)N[C@H](C(=O)N[C@@H](CC(N)=O)C(=O)N[C@H](C(=O)NCC(=O)N[C@@H](CO)C(=O)N[C@@H](CC(N)=O)C(=O)N[C@H](C(=O)N[C@@H](Cc1ccc(O)cc1)C(N)=O)[C@@H](C)O)C(C)C)[C@@H](C)O` is reported as 10 °C (4 µM, pH 7.3).

Repeated from above:
For `COc1ccc(F)c2[nH]c(C(=O)N[C@@H](CC(C)C)C(=O)N[C@@H](C[C@@H]3CCNC3=O)C(=O)c3nc4ccccc4s3)cc12`, the half-life was about 0.5 h (Jcl:ICR mice, female; intravenous, 2.0 mg/kg).
With `CC1N=C(c2ccccc2F)c2cc(Br)ccc2-n2cnc(C(=O)OC3OC(CO)C(O)C(O)C3O)c21` (stereo not shown) the cumulative excretion was 13.9 ± 7.1% (LC-MS/MS; Swiss Webster mouse, female, urine; intraperitoneal, 750 µg parent drug, 0 to 24 h).
